{"data": "Measured values of several laboratories", "note": "Numbered parts are unrelated; each lists some results of a single study."}
{"data": "Block 1", "cell line": "mouse MPNST tumor cells", "method": "high-content immunofluorescence imaging", "item": "nuclear SOX9", "tested at": "10 µM", "time": "12 h", "notes": "mean of 2 replicates", "reference": "DMSO control", "reading": "higher = more nuclear SOX9"}
{"SMILES": "Cc1cc(C)c(S(=O)(=O)Nc2cccc(C(F)(F)F)c2)c(C)c1", "nuclear SOX9 intensity": "128 % of DMSO"}
{"SMILES": "CCS(=O)(=O)Nc1ccc2[nH]c(O)c(C(=Nc3ccc(CN4CCCCC4)cc3)c3ccccc3)c2c1", "nuclear SOX9 intensity": "96.6 % of DMSO"}
{"SMILES": "Cc1cc(NCCO)nc(-c2ccc(Br)cc2)n1", "nuclear SOX9 intensity": "97.5 % of DMSO"}
{"SMILES": "Cc1cc(=O)oc2c(C=O)c(O)ccc12", "nuclear SOX9 intensity": "81.4 % of DMSO"}
{"data": "Block 2", "target": "PABPC1L2, full length, GST fusion (mouse, UniProt A0ABA7IW68)", "method": "RNAcompete", "molecule type": "RNA", "medium": "in vitro", "tested at": "20 nM", "notes": "7-mer, probes averaged, single round", "reference": "mean of 7-mers", "reading": "higher = stronger binding", "Residues (chain)": "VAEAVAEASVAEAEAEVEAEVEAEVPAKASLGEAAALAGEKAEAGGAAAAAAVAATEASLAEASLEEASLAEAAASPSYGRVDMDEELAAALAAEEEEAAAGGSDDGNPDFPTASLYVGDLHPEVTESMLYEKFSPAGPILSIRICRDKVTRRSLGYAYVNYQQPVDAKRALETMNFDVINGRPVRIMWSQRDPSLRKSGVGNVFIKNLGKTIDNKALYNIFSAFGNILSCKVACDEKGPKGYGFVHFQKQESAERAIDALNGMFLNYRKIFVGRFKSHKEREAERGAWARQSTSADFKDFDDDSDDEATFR"}
{"Strand": "CACGUUG", "7-mer Z-score": -0.204}
{"Strand": "ACCGAGU", "7-mer Z-score": -0.18}
{"Strand": "AGCAACC", "7-mer Z-score": 0.00979}
{"Strand": "GGCGCGU", "7-mer Z-score": -0.0953}
{"Strand": "GGAGUCG", "7-mer Z-score": -0.0736}
{"Strand": "CACGGAG", "7-mer Z-score": 0.227}
{"Strand": "CGGGGCG", "7-mer Z-score": -0.0174}
{"Strand": "UAGGAUA", "7-mer Z-score": -0.0319}
{"data": "Block 3", "target": "Protein C-ets-1 (ETS1, Homo sapiens, UniProt P14921, residues 1-441, K379A, full length assumed)", "method": "protein-binding microarray", "molecule type": "double-stranded DNA, one strand shown", "medium": "in vitro", "tested at": "not given", "notes": "k-mer, scored over probes, only values ≥0.25", "reading": "higher = stronger binding", "Construct (chain)": "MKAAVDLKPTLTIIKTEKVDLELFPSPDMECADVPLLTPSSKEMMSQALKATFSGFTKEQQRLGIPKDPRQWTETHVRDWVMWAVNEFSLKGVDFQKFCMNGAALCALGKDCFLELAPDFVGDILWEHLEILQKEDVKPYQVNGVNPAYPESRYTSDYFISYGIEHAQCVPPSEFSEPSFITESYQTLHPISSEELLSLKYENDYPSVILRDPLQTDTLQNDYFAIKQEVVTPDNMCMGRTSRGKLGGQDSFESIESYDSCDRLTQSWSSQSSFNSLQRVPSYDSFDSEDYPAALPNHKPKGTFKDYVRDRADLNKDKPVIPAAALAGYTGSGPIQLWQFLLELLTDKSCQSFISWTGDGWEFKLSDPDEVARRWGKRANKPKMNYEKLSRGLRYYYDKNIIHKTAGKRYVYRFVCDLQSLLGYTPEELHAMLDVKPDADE"}
{"Strand": "CAATAACC", "E-score": 0.262}
{"Strand": "CATTACGA", "E-score": 0.276}
{"Strand": "ACACAACA", "E-score": 0.277}
{"Strand": "CCGTACTA", "E-score": 0.252}
{"Strand": "AGTCAGAT", "E-score": 0.266}
{"Strand": "ACAACGGA", "E-score": 0.28}
{"Strand": "CGCAACCG", "E-score": 0.322}
{"Strand": "CCGTCGGC", "E-score": 0.315}
{"data": "Other studies, line by line"}
{"Compound": "CCC(=O)N[C@H]1CC[C@@H](C(=O)N(C)c2ccc(-c3nc4ccccc4o3)cc2)C1", "target": "5-hydroxytryptamine receptor 1A (HTR1A, Homo sapiens, UniProt P08908)", "observed": "ligand displacement", "method": "radioligand", "tested at": "10 µM", "measurement": "inhibition", "value": "19.5%"}
{"note": "Excerpt of the above (block 3):"}
{"Strand": "CGCAACCG", "E-score": 0.322}
